Assay results from different studies.
Each numbered part is a random draw from the data of one study; scales do not carry over between parts. Changes are numbered by the printed parent chain.

Set 1
Target: Sal-like protein 4, full length isoform A (SALL4, Homo sapiens, UniProt Q9UJQ4, residues 1-1053)
UniProt Q9UJQ4, sequence (whole entry, looked up): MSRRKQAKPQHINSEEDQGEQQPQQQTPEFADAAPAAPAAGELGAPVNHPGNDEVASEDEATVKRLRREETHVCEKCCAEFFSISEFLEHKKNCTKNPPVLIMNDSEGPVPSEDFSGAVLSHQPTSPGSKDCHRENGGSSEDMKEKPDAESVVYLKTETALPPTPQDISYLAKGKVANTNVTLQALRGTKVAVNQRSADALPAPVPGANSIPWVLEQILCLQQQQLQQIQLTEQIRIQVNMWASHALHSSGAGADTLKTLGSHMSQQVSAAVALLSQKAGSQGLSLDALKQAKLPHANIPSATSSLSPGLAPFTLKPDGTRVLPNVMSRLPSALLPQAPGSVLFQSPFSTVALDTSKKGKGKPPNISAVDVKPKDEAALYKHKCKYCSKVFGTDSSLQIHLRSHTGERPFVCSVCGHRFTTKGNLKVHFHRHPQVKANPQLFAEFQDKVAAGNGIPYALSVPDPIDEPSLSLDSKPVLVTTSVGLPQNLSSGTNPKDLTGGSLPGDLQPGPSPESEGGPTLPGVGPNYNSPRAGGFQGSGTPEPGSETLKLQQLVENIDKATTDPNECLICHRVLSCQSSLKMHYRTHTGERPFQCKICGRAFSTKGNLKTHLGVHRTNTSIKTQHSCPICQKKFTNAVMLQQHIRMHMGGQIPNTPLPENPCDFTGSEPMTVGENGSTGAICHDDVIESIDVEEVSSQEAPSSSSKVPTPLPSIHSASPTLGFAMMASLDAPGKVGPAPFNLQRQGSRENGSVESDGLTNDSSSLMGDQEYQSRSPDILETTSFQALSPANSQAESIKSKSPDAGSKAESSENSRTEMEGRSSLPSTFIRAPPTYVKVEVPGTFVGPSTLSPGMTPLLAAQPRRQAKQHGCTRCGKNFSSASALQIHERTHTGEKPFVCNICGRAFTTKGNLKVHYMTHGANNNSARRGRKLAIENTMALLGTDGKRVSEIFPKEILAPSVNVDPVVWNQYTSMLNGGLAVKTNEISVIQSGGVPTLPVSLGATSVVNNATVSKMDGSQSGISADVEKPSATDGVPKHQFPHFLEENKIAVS
Method: universal PBM
Form: double-stranded DNA, one strand shown
Sample: in vitro
Concentration: 600 nM
Setting: 8-mer, flanks averaged, mean of replicates
Direction: higher = stronger binding
| Oligonucleotide | E-score |
| --- | --- |
| AGTGGAAA | 0.041 |
| GAAGGACC | -0.219 |
| AAATAGGC | 0.161 |
| GATCGACA | 0.0418 |
| ACCCTAGT | -0.105 |
| TGCTTTAA | 0.105 |

Set 2
Target: Fragile X messenger ribonucleoprotein 1, C-terminal low-complexity region (Fmr1, Mus musculus, UniProt P35922)
Method: RNA Bind-n-Seq
Form: RNA
Sample: in vitro
Concentration: 200 nM
Setting: whole 134-nt RNA, ends assumed
Added: 150 mM LiCl
Relative to: input library
Direction: higher = stronger binding
Library: 7-deaza-guanosine replaces G
Shared flanks, not repeated: GGGAGUUCUACAGUCCGACGAUC … UGGAAUUCUCGGGUGUCAAGG
| Oligonucleotide | log2 enrichment |
| --- | --- |
| CUCCAGAAAGCAGUGGGGCCUGAGAUCACCAAGACAGACCUGGUCCCUGCCUUCCAGAACCUGAUGAAAGACUGUGAGGCCGAGGUGAGG | -1.58 |
| UAAGUUUAGAGGAGGAUCUGAUGGAUAUGGCAGUGGACGUGGAUUUGGGGAUGGCUAUAAUGGGUAUGGAGGAGGACCUGGAGGUGGCAA | 0.224 |
| UGGGAGGUGGAUUUUGUUUAUUUUUUAAGCUCAUUUCCAGGGGUGGGAAUUUUUUUUUAAUAUGUGUCAUGAAUAAAGUUGUUUUUGAAA | -1.01 |
| CCUGUGCUACACAUCGUAUGUACCGAAUCGGGGUUUUUGGGGAAAAAAAGGGGAAAGGGGAAAGUAUUAUGUUACGCCGUUCGGAUCUGC | -0.978 |
| UCCUGUGCUACACAUCGUAUGUACCGAAUCGGGGAGGGGUUUUUUUGGGGUUUUUGGGGAAAGUAUUAUGUUACGCCGUUCGGAUCUGCA | 0.301 |
| CUGUGCUACACAUCGUAUGUACCGAAUCGGGGAAAAAAAGGAAAAAAAGGGAAAAAAAGGGGAAAGUAUUAUGUUACGCCGUUCGGAUCU | 0.523 |
| CUCCUGGAGUGGAUCCGGCGCACCAUCCCCUGGCUGGAGGACCGUGUGCCCCAAAAGACUAUCCAGGAGAUGCAGCAGAAGCUGGAGGAC | -4.27 |
| CCUGUGCUACACAUCGUAUGUACCGAAUCGGGGUUUUUGGGGAAAGGGGAAAAAAAGGGGAAAGUAUUAUGUUACGCCGUUCGGAUCUGC | -0.0104 |

Set 3
Target: CCND2, cyclin fold, Cln2 fusion (human)
Method: yeast growth competition, sequencing
Sample: yeast
Setting: weak parent motif
Relative to: not given
Direction: higher = stronger binding
Starting sequence: PKMYT1 docking peptide (human); SFEPRNLLSLFED
| Variant | normalised enrichment score |
| --- | --- |
| SFEPINLLSLFED [R5I] | 0.394 |
| SFEPRNCLSLFED [L7C] | 0.344 |
| SFECRNLLSLFED [P4C] | 0.102 |
| SFEPRNLLSLFER [D13R] | -0.196 |

Single results of other studies
| Substance | target | test | system | conditions | how to read | quantity | value |
| --- | --- | --- | --- | --- | --- | --- | --- |
| PhoQ, residues 284 288 289 292 302 303 NLALSC | PhoP, residues 12 14 15 18 19 LHSVW (Escherichia coli, UniProt P23836) | Sort-seq, refers to: YFP reporter | E. coli | PhoQ-PhoP variant library, added: 10 µM Mg2+ | relative to: high Mg2+ state, higher = stronger signaling | fold induction | 1.38 |

Repeated from above (set 1):
| Oligonucleotide | E-score |
| --- | --- |
| AAATAGGC | 0.161 |
